Measurements of several laboratories.
Compare with care: the assays were run in different laboratories.
Partner: itself
B1: mcsB C167A (Bacillus subtilis, UniProt P37570); chain MSLKHFIQDALSSWMKQKGPESDIVLSSRIRLARNFEHIRFPTRYSNEEASSIIQQFEDQFSEQEIPGIGKFVLIRMNDAQPLEKRVLVEKHLISPNLTESPFGGCLLSENEEVSVMLNEEDHIRIQCLFPGFQLLEAMKAANQVDDWIEEKVDYAFNEQRGYLTSAPTNVGTGLRASVMMHLPALVLTRQINRIIPAINQLGLVVRGIYGEGSEAVGNIFQISNQITLGKSEQDIVEDLNSVAAQLIEQERSAREAIYQTSKIELEDRVYRSYGVLSNCRMIESKETAKCLSDVRLGIDLGIIKGLSSNILNELMILTQPGFLQQYSGGALRPNERDIRRAALIRERLHLEMNGKRQEDESI
B2: GFOD1 1-390 (Homo sapiens, UniProt Q9NXC2); sequence looked up; chain MLPGVGVFGTSLTARVIIPLLKDEGFAVKALWGRTQEEAEELAKEMSVPFYTSRIDEVLLHQDVDLVCINLPPPLTRQIAVKTLGIGKNVICDRTATPLDAFRMTSAAHYYPKLMSIMGNVLRFLPAFVRMKQLIEEGYVGEPLVCEVQVHGGSLLGKKYNWSCDDLMGGGGLHSVGTYIIDLLTFLTGQKAVKVHGLLKTFVKQTDHIKGIRQITSDDFCTFQMVLEGGVCCTVTLNFNVPGEFKQDVTVVGSAGRLLAVGTDLYGQRNSAPEQELLVQDATPVSNSLLPEKAFSDIPSPYLRGTIKMMQAVRQAFQDQDDRRTWDGRPLTMAATFDDCLYALCVVDTIKRSSQTGEWQNIAIMTEEPELSPAYLISEAMRRSRMSLYC
B3: RBKS E154A (Homo sapiens, UniProt Q9H477); sequence looked up; chain MAASGEPQRQWQEEVAAVVVVGSCMTDLVSLTSRLPKTGETIHGHKFFIGFGGKGANQCVQAARLGAMTSMVCKVGKDSFGNDYIENLKQNDISTEFTYQTKDAATGTASIIVNNEGQNIIVIVAGANLLLNTEDLRAAANVISRAKVMVCQLAITPATSLEALTMARRSGVKTLFNPAPAIADLDPQFYTLSDVFCCNESEAEILTGLTVGSAADAGEAALVLLKRGCQVVIITLGAEGCVVLSQTEPEPKHIPTEKVKAVDTTGAGDSFVGALAFYLAYYPNLSLEDMLNRSNFIAAVSVQAAGTQSSYPYKKDLPLTLF
B4: racE (Dictyostelium discoideum, UniProt Q23862); sequence looked up; chain MSEDQGSGATRVKLVVVGDGAVGKTCLLICYAQNDFPVDYVPTVFENYTATRKRGNEDIKVHLWDTAGQEEYDRLRPLSYPGADVVLLCFSTISQSSYEAIRDKWAPEVNHYIPDVPSILVGTKIDLREQQHPDPNSGKFEPITADMGISMQKQIKAKKYLEVSAKTRQGLEEVFSAAIEIVLESRGMDKKSQDGSSSASGVPSGDKPTKGKAGKKKSGCIIL
B5: trfB R48A/Q53A (Escherichia coli, UniProt P03052); sequence looked up; chain MKKRLTESQFQEAIQGLEVGQQTIEIARGVLVDGKPQATFATSLGLTAGAVSAAVHRVWAAFEDKNLPEGYARVTAVLPEHQAYIVRKWEADAKKKQETKR
B6: spo0J K255A (Bacillus subtilis, UniProt P26497); chain MAKGLGKGINALFNQVDLSEETVEEIKIADLRPNPYQPRKHFDDEALAELKESVLQHGILQPLIVRKSLKGYDIVAGERRFRAAKLAGLDTVPAIVRELSEALMREIALLENLQREDLSPLEEAQAYDSLLKHLDLTQEQLAKRLGKSRPHIANHLRLLTLPENIQQLIAEGTLSMGHGRTLLGLKNKNKLEPLVQKVIAEQLNVRQLEQLIQQLNQNVPRETKKKEPVKDAVLKERESYLQNYFGTTVNIKRQAKKGKIEIEFFSNEDLDRILELLSERES
B7: ADAR1 127-end 127-1226 Y1112F (human, UniProt P55265); sequence looked up; chain SSHFQELSIYQDQEQRILKFLEELGEGKATTAHDLSGKLGTPKKEINRVLYSLAKKGKLQKEAGTPPLWKIAVSTQAWNQHSGVVRPDGHSQGAPNSDPSLEPEDRNSTSVSEDLLEPFIAVSAQAWNQHSGVVRPDSHSQGSPNSDPGLEPEDSNSTSALEDPLEFLDMAEIKEKICDYLFNVSDSSALNLAKNIGLTKARDINAVLIDMERQGDVYRQGTTPPIWHLTDKKRERMQIKRNTNSVPETAPAAIPETKRNAEFLTCNIPTSNASNNMVTTEKVENGQEPVIKLENRQEARPEPARLKPPVHYNGPSKAGYVDFENGQWATDDIPDDLNSIRAAPGEFRAIMEMPSFYSHGLPRCSPYKKLTECQLKNPISGLLEYAQFASQTCEFNMIEQSGPPHEPRFKFQVVINGREFPPAEAGSKKVAKQDAAMKAMTILLEEAKAKDSGKSEESSHYSTEKESEKTAESQTPTPSATSFFSGKSPVTTLLECMHKLGNSCEFRLLSKEGPAHEPKFQYCVAVGAQTFPSVSAPSKKVAKQMAAEEAMKALHGEATNSMASDNQPEGMISESLDNLESMMPNKVRKIGELVRYLNTNPVGGLLEYARSHGFAAEFKLVDQSGPPHEPKFVYQAKVGGRWFPAVCAHSKKQGKQEAADAALRVLIGENEKAERMGFTEVTPVTGASLRRTMLLLSRSPEAQPKTLPLTGSTFHDQIAMLSHRCFNTLTNSFQPSLLGRKILAAIIMKKDSEDMGVVVSLGTGNRCVKGDSLSLKGETVNDCHAEIISRRGFIRFLYSELMKYNSQTAKDSIFEPAKGGEKLQIKKTVSFHLYISTAPCGDGALFDKSCSDRAMESTESRHYPVFENPKQGKLRTKVENGEGTIPVESSDIVPTWDGIRLGERLRTMSCSDKILRWNVLGLQGALLTHFLQPIYLKSVTLGYLFSQGHLTRAICCRVTRDGSAFEDGLRHPFIVNHPKVGRVSIFDSKRQSGKTKETSVNWCLADGYDLEILDGTRGTVDGPRNELSRVSKKNIFLLFKKLCSFRYRRDLLRLSYGEAKKAARDYETAKNYFKKGLKDMGYGNWISKPQEEKNFYLCPV
B8: protein S723T (Penicillium verruculosum, UniProt A0A348FUE1); sequence looked up; chain MSPMDLQESAAALVRQLGERVEDRRGFGFMSPAIYDTAWVSMISKTIDDQKTWLFAECFQYILSHQLEDGGWAMYASEIDAILNTSASLLSLKRHLSNPYQITSITQEDLSARINRAQNALQKLLNEWNVDSTLHVGFEILVPALLRYLEDEGIAFAFSGRERLLEIEKQKLSKFKAQYLYLPIKVTALHSLEAFIGAIEFDKVSHHKVSGAFMASPSSTAAYMMHATQWDDECEDYLRHVIAHASGKGSGGVPSAFPSTIFESVWPLSTLLKVGYDLNSAPFIEKIRSYLHDAYIAEKGILGFTPFVGADADDTATTILVLNLLNQPVSVDAMLKEFEEEHHFKTYSQERNPSFSANCNVLLALLYSQEPSLYSAQIEKAIRFLYKQFTDSEMDVRDKWNLSPYYSWMLMTQAITRLTTLQKTSKLSTLRDDSISKGLISLLFRIASTVVKDQKPGGSWGTRASKEETAYAVLILTYAFYLDEVTESLRHDIKIAIENGCSFLSERTMQSDSEWLWVEKVTYKSEVLSEAYILAALKRAADLPDENAEAAPVINGISTNGFEHTDRINGKLKVNGTNGTNGSHETNGINGTHEIEQINGVNGTNGHSDVPHDTNGWVEEPTAINETNGHYVNGTNHETPLTNGISNGDSVSVHTDHSDSYYQRSDWTADEEQILLGPFDYLESLPGKNMRSQLIQSFNTWLKVPTESLDVIIKVISMLHTATLLIDDIQDQSILRRGQPVAHSIFGTAQAMNSGNYVYFLALREVQKLQNPKAISIYVDSLIDLHRGQGMELFWRDSLMCPTEEQYLDMVANKTGGLFCLAIQLMQAEATIQVDFIPLVRLLGIIFQICDDYLNLKSTAYTDNKGLCEDLTEGKFSFPIIHSIRSNPGNRQLINILKQKPREDDIKRYALSYMESTNSFEYTRGVVRKLKTEAIDTIQGLEKHGLEENIGIRKILARMSLEL
B9: grpE (Escherichia coli, UniProt P09372); sequence looked up; chain MSSKEQKTPEGQAPEEIIMDQHEEIEAVEPEASAEQVDPRDEKVANLEAQLAEAQTRERDGILRVKAEMENLRRRTELDIEKAHKFALEKFINELLPVIDSLDRALEVADKANPDMSAMVEGIELTLKSMLDVVRKFGVEVIAETNVPLDPNVHQAIAMVESDDVAPGNVLGIMQKGYTLNGRTIRAAMVTVAKAKA
B10: protein 660-963 (Penicillium verruculosum, UniProt A0A348FUE1); sequence looked up; chain SYYQRSDWTADEEQILLGPFDYLESLPGKNMRSQLIQSFNTWLKVPTESLDVIIKVISMLHTASLLIDDIQDQSILRRGQPVAHSIFGTAQAMNSGNYVYFLALREVQKLQNPKAISIYVDSLIDLHRGQGMELFWRDSLMCPTEEQYLDMVANKTGGLFCLAIQLMQAEATIQVDFIPLVRLLGIIFQICDDYLNLKSTAYTDNKGLCEDLTEGKFSFPIIHSIRSNPGNRQLINILKQKPREDDIKRYALSYMESTNSFEYTRGVVRKLKTEAIDTIQGLEKHGLEENIGIRKILARMSLEL
B11: TMEM65 (Homo sapiens, UniProt Q6PI78); sequence looked up; chain PMEALNTAQGARDFIYSLHSTERSCLLKELHRFESIAIAQEKLEAPPPTPGQLRYVFIHNAIPFIGFGFLDNAIMIVAGTHIEMSIGIILGISTMAAAALGNLVSDLAGLGLAGYVEALASRLGLSIPDLTPKQVDMWQTRLSTHLGKAVGVTIGCILGMFPLIFFGGGEEDEKLETKS
B12: tebp-1 167-282 (Caenorhabditis elegans, UniProt O62329); chain DVEISDSFEKAMWNHVSQNAARLTGKFLMTEQFWAELLQSQPNIPIKSAHIVLHHFNEMMLENLWKQAMDPDAKLQILKDLSVPLSYHQRKWILDNDRLDVALSLDGYVVSWDIVR
B13: gdh1 2-451 (Schizosaccharomyces pombe, UniProt P78804); chain STPYEPEFQQAYKEIVGSIESSKLFEVHPELKRVLPIISIPERVLEFRVTWEDDKGNCRVNTGYRVQFNSALGPYKGGLRFHPSVNLSILKFLGFEQIFKNALTGLPMGGGKGGSDFDPKGKSDNEIRRFSQAFMRQLFRYIGPQTDVPAGDIGVTGFVVMHMFGEYKRLRNEYSGVVTGKHMLTGGSNIRPEATGYGVVYYVKHMIEHRTKGAETLKGKRVAISGSGNVAQYAALKCIQEGAIVKSISDSKGVLIAKTAEGLVPEEIHEIMALKEKRASIADSASLCKKHHYIAGARPWTNVGEIDIALPCATQNEVSGEEAAALIKQGCRYVAEGSNMGSSAEAVEVFEKSRASGEGCWLAPGKAANAGGVAVSGLEMAQNAQFSTWTHAEVDAKLAGIMQNIFEQSTDVASKYCDSGSNNIPSLVDGANIAGFLKVATAMQAVGDWW
B14: cfbA 1-143 S11A (Methanocaldococcus jannaschii, UniProt Q58380); chain MEALVLVGHGARLPYSKELLVKLAEKVKERNLFPIVEIGLMEFSEPTIPQAVKKAIEQGAKRIIVVPVFLAHGIHTTRDIPRLLGLIEDNHEHHHEHSHHHHHHHHHEHEKLEIPEDVEIIYREPIGADDRIVDIIIDRAFGR
Sequence of UniProt Q8GUH7 (whole entry, looked up): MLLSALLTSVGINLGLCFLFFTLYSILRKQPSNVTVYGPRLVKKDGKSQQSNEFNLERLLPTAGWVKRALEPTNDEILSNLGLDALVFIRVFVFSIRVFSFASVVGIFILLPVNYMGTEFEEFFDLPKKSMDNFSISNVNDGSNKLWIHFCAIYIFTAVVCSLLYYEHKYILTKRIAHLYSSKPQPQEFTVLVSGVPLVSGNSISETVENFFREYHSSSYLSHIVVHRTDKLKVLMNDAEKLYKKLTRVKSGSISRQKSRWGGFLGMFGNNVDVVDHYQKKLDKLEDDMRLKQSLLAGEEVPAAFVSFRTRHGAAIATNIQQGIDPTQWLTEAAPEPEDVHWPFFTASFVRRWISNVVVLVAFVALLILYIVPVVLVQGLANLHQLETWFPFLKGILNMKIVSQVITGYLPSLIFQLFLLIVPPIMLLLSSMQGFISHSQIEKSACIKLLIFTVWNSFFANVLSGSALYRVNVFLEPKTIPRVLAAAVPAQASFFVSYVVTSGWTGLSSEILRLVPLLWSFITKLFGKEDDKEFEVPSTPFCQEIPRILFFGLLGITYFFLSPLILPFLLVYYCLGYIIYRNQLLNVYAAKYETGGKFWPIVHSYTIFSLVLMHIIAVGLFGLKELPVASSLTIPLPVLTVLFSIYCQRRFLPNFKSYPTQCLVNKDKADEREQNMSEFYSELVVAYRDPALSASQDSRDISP

| Substance | test | subunits per oligomer |
| --- | --- | --- |
| B1 (mcsB C167A) | SEC | 2 |
| B2 (GFOD1 1-390) | SEC | 2 |
| NRSSKYLDEAYEEMVNIIEYNKELQAKVNILRRQLAELETEDGMQESP (MTMR9 502-549 (Homo sapiens, UniProt Q96QG7); sequence looked up) | cross-linking | 3 |
| B3 (RBKS E154A) | mass photometry | 2 |
| Pgi1 (Azotobacter vinelandii, UniProt C1DDK7) | cryo-EM | 10 |
| B4 (racE) | SEC | 2 |
| B5 (trfB R48A/Q53A) | SEC | 2 |
| B6 (spo0J K255A) | SEC-MALS | 2 |
| B7 (ADAR1 127-end 127-1226 Y1112F) | SEC | 2 |
| B8 (protein S723T) | cryo-EM | 6 |
| B9 (grpE) | cross-linking | 2 |
| OSCA2.3 (Arabidopsis thaliana, UniProt Q8GUH7) | cryo-EM structure | 2 |
| B10 (protein 660-963) | X-ray crystallography | 6 |
| B11 (TMEM65) | cross-linking | 2 |
| B12 (tebp-1 167-282) | SEC-MALS | 2 |
| B13 (gdh1 2-451) | crystallography | 6 |
| B14 (cfbA 1-143 S11A) | SEC | 2 |

Repeated from above:
| Substance | test | subunits per oligomer |
| --- | --- | --- |
| B9 (grpE) | cross-linking | 2 |
| B5 (trfB R48A/Q53A) | SEC | 2 |
| B12 (tebp-1 167-282) | SEC-MALS | 2 |
